Published values pooled from the literature.
Each numbered part is a random draw from the data of one study; scales do not carry over between parts.

Study 1
Target: High affinity nerve growth factor receptor (NTRK1, Homo sapiens, UniProt P04629)
UniProt P04629, sequence (whole entry, looked up): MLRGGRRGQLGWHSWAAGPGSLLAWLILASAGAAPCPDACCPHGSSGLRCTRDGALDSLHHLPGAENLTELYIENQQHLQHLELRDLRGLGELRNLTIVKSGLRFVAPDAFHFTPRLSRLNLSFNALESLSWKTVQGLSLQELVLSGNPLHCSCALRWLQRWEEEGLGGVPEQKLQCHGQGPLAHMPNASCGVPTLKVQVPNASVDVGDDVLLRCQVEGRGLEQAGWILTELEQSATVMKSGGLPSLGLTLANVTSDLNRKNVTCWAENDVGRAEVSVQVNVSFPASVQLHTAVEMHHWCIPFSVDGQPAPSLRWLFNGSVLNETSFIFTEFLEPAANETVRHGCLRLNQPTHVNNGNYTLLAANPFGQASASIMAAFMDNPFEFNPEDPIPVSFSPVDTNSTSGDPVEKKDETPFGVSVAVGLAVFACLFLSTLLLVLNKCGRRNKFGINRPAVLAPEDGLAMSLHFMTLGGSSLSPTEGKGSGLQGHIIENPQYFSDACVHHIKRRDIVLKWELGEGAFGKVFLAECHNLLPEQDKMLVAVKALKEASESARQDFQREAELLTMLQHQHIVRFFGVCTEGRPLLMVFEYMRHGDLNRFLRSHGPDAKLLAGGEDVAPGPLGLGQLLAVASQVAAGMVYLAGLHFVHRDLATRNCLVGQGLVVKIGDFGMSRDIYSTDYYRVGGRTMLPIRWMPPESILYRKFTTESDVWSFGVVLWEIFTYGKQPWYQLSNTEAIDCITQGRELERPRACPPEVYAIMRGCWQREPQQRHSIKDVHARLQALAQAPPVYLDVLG
Observed: enzyme activity
Action: inhibitor
Concentration: 0.5 µM
Relative to: control
For `NC(=O)c1cccc(-c2cc(Nc3ccc(OC(F)(F)F)cc3)ncn2)c1`, the remaining activity was 96.6%.
`O=Nc1c(-c2c(O)[nH]c3ccccc23)[nH]c2ccccc12` has a remaining activity of 12.4%.
`NC(=O)c1ccc(-c2nc(-c3ccc4c(c3)OCCO4)c(-c3ccccn3)[nH]2)cc1` has a remaining activity of 90.7%.
`CC(C)(C)c1nc2c3cc[nH]c(=O)c3c3cc(F)ccc3c2[nH]1` has a remaining activity of 48.7%.
`COc1cc2c(N3CCN(C(=O)Nc4ccc(OC(C)C)cc4)CC3)ncnc2cc1OCCCN1CCCCC1` has a remaining activity of 48.1%.
`CC(C)n1cnc2c(Nc3cccc(Cl)c3)nc(NCCO)nc21` gave a remaining activity of 98.2%.
`CCN(CC)CCCCN1c2ccccc2Oc2ccc(Cl)cc21` gave a remaining activity of 99.8%.
`Clc1ccc(Nc2nnc(Cc3ccncc3)c3ccccc23)cc1` gave a remaining activity of 98.7%.
`N#CC(c1ccnc(NCCc2cccnc2)n1)c1nc2ccccc2s1` (stereo not drawn) gave a remaining activity of 106%.
`CNc1cc2c(Nc3cccc(Br)c3)ncnc2cn1` has a remaining activity of 95.9%.
`CCCCc1c(-c2ccc(O)cc2)[nH]c2nccnc12` has a remaining activity of 99.6%.
`C[C@@H](N)[C@H]1CC[C@H](C(=O)Nc2ccncc2)CC1` has a remaining activity of 101%.
`FC(F)(F)c1ccc(/C=C/c2nc(COc3ccc(CCCCn4ccnn4)cc3)co2)cc1` has a remaining activity of 103%.
With `N#C/C(=C(/N)SC1C=CC=CC1)c1cccc(C(O)c2ccncc2)c1` (stereo not drawn) the remaining activity was 97.9%.
`Nc1nc(Nc2ccc(S(N)(=O)=O)cc2)nn1C(=S)Nc1c(F)cccc1F` gave a remaining activity of 31.7%.
With `O=c1c(-c2ccc(F)cc2)c(-c2ccncc2)[nH]n1-c1ccc(Cl)cc1` the remaining activity was 95.5%.
The remaining activity of `COc1cc2c(Nc3ccc(Br)cc3F)ncnc2cc1OCC1CCN(C)CC1` is reported as 104%.
`O=C1NC(=O)/C(=C/c2ccc3c(c2)OC(F)(F)O3)S1` has a remaining activity of 92.5%.
`c1cc(-c2cnn3cc(-c4ccc(OCCN5CCCCC5)cc4)cnc23)ccn1` has a remaining activity of 105%.
For `O=C(c1ccccc1)c1ccc(N2CCOCC2)cc1O`, the remaining activity was 99%.
With `O=C1c2ccccc2-c2nc3nnnn3nc21` the remaining activity was 76.6%.
The remaining activity of `O=C(O)/C=C/c1cc(Br)c(Br)c(Br)c1Br` is reported as 91.1%.
`CC(C)N(CCC(=O)c1ccc2ccccc2c1)Cc1ccccc1` gave a remaining activity of 94.8%.

Study 2
Target: Sigma intracellular receptor 2 (TMEM97, Homo sapiens, UniProt Q5BJF2)
UniProt Q5BJF2, sequence (whole entry, looked up): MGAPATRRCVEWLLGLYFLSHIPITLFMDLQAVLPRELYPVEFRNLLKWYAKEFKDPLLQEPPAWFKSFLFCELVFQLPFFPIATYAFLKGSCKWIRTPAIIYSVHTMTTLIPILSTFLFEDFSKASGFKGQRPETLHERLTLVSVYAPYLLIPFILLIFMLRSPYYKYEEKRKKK
Observed: ligand displacement
Concentration: 10 µM
With `CCC(=NO)C(C)=Cc1ccc(F)c(C)c1` the inhibition was 33.4%.
`NC(=O)c1ccc2nc(-c3ccc(C4(N)CCC4)cc3)c(-c3ccccc3)n2n1` has an inhibition of 39.9%.
`CNC(=N)NCCC[C@H](NC(=O)[C@H](CC(C)C)NC(=O)NNC(=O)[C@H](Cc1ccccc1)NC(=O)[C@H](CO)NC(=O)[C@H](CC(N)=O)NC(=O)[C@@H](Cc1ccncc1)NC(=O)[C@H](N)Cc1ccc(O)cc1)C(=O)N[C@@H](Cc1ccccc1)C(N)=O` gave an inhibition of -5.31%.
`CC1=C(C#N)C(c2ccc3[nH]nc(C)c3c2)C(C#N)=C(C)N1` gave an inhibition of 23.9%.
`O=c1nc(-c2ccccn2)sc2ccccc12` gave an inhibition of 12.5%.
With `O=S(=O)(NC1CCC(c2cc(F)ccc2F)(S(=O)(=O)c2ccc(Cl)cc2)CC1)C(F)(F)F` (stereo not drawn) the inhibition was 25.2%.
The inhibition of `c1ccc(N2CCN(Cc3nc4ccccc4[nH]3)CC2)nc1` is reported as -32.4%.
The inhibition of `O=C(N[C@H]1CCCCC/C=C\C2C[C@@]2(C(=O)O)NC(=O)[C@@H]2C[C@@H](Oc3ccncc3)CN2C1=O)OC1CCCC1` (stereo partly drawn) is reported as 18.5%.
With `CCC(F)(F)c1cc(N2CCC(S(C)(=O)=O)CC2)nc2sc(C(N)=O)c(N)c12` the inhibition was 34.5%.
`CC[C@H](CC(=O)O)n1c(=O)c2ncccc2n(Cc2cn(C)c3cc(C)cc(C)c23)c1=O` has an inhibition of -9.5%.
`CC(=O)N1CCC(c2ccc(C(=O)NC3=NCCN3)cc2C(F)(F)F)CC1` gave an inhibition of -0.12%.
With `Nc1nc(NCc2ccccc2)nc(-c2cccc(CO)c2)n1` the inhibition was 12.3%.
`CC1CCN(c2ccnc(NCc3cn(C)cn3)n2)CC1` gave an inhibition of 33.6%.
`Nc1nc(NCc2ccccc2)nc(-c2ccccc2CO)n1` gave an inhibition of -27.6%.
`O=C(Nc1ccc(Oc2ccc(F)cc2)cc1)N1CCc2ncccc2[C@H]1c1ccc(F)cc1` gave an inhibition of 80.8%.
`Cc1ccccc1Oc1cc(-n2c(=O)cc(C(F)(F)F)[nH]c2=O)c2ccccc2c1Cl` gave an inhibition of -7.5%.
`CS(=O)(=O)N1CCCC(NC(=O)[C@H](CCC2CCCCC2)NC(=O)c2ccc(CNC(=O)c3cnc4ccccn34)cc2)C1` (stereo partly drawn) has an inhibition of 32%.
With `C[C@H](c1ccnc(Nc2nc3ccc(-c4cc(N(C)C)ncn4)cc3[nH]2)c1)N1CCN(C(=O)CC(F)(F)F)CC1` the inhibition was 54.1%.
The inhibition of `CCc1ccccc1C(=O)Nc1n[nH]c2c(C)c(F)c(C3C(C#N)=C(C)N(C)C(C)=C3C#N)cc12` is reported as 78.3%.
`Cc1ncc(-c2cc(Cl)ccc2F)cc1-n1c(=O)n(CC(N)=O)c2ccccc21` has an inhibition of 41.6%.
With `CCOc1ccc(S(=O)(=O)Nc2ccc(Cl)cc2C#Cc2cnc(C(=O)O)cc2OC)c2ncccc12` the inhibition was -20.9%.
The inhibition of `CN(C)c1ncnc(-c2ccc3nc(Nc4cc(CN5CCN(C(=O)CC(F)(F)F)CC5)ccn4)[nH]c3c2)c1Cl` is reported as 68.1%.
`CN1CCN(c2cnc3c(C4CCN(C(=O)c5ccc(OC(F)(F)F)cc5N)CC4)ncnc3c2)CC1` gave an inhibition of 30.9%.
`N#CC1(c2ccccn2)CCN(Cc2cc(C(=O)N3CCCC3)c(=O)n3ccccc23)CC1` gave an inhibition of 24.1%.
`Cn1cc(Cl)c2c(Oc3c(F)cc(Nc4cc(Cl)nc(N)n4)cc3F)ccnc21` gave an inhibition of -39.7%.

Study 3
Cell line: A-375
Concentration: 100 µM
Time: 18 h
With `Nc1ccc2cc3ccc(N)cc3nc2c1` the viability was 38.8%.
The viability of `CC(=O)[C@H]1CC[C@H]2[C@@H]3CCC4=CC(=O)CC[C@]4(C)[C@H]3CC[C@]12C` is reported as 26.9%.
`CC1=NN(c2ccc(C)c(C)c2)C(=O)/C1=N\Nc1cccc(-c2cccc(C(=O)O)c2)c1O` gave a viability of 47.8%.
The viability of `Cc1ccc(C(=O)c2cc(O)c(O)c([N+](=O)[O-])c2)cc1` is reported as 105%.
For `O=C(O)c1cc(=O)c2ccccc2o1`, the viability was 93.6%.
With `O=C(NC(Cc1cc(=O)[nH]c2ccccc12)C(=O)O)c1ccc(Cl)cc1` (stereo not drawn) the viability was 107%.
`O=c1c(-c2ccc(O[C@@H]3O[C@H](CO)[C@@H](O)[C@H](O)[C@H]3O)cc2)coc2cc(O)cc(O)c12` gave a viability of 99.4%.
`CC(C)(CO)C(O)C(=O)NCCCO` (stereo not drawn) has a viability of 69.1%.
`CC(C)OC(=O)C(C)(C)Oc1ccc(C(=O)c2ccc(Cl)cc2)cc1` gave a viability of 91.6%.
For `C=C1CC[C@H](O)C/C1=C/C=C1\CCC[C@]2(C)[C@@H]([C@H](C)/C=C/[C@H](C)C(C)C)CC[C@@H]12`, the viability was 19.5%.
The viability of `NC1C(O)O[C@H](CO)C(O[C@@H]2O[C@H](CO)C(O[C@@H]3O[C@H](CO)[C@@H](O)[C@H](O)[C@H]3N)[C@H](O)C2N)C1O` (stereo partly drawn) is reported as 101%.
The viability of `CN(C/C=C/c1ccccc1)Cc1cccc2ccccc12` is reported as 50.2%.

Study 4
Species: mouse
Sample: microsomes or S9
Concentration: 2 µM
Time: 0.5 h
With `Cc1nn(CC(=O)N2c3c(c(C)nn3C)N(C(=O)OC(C)(C)C)CC2C)c(C)c1Cl` (stereo not drawn) the remaining compound was 3.35%.
`COc1cc2nc(OC3CCN(C(=O)OC(C)(C)C)CC3)nc(Nc3ccc(S(C)(=O)=O)cc3F)c2cc1OC` gave a remaining compound of 0.356%.
For `c1ccc2c(c1)Cc1cc(-n3nnc4ccccc43)ccc1-2`, the remaining compound was 3.72%.
With `CCOC(=O)C(CC)c1cc(C#N)c(C#N)cc1O` (stereo not drawn) the remaining compound was 21.3%.
`Cc1n[nH]c(C)c1Sc1ccccc1-n1cnnc1` has a remaining compound of 48.4%.
For `O=C(Nc1cc(Oc2ncccn2)c(Cl)cc1F)Oc1ccccc1`, the remaining compound was 1.66%.
For `Cc1ccc(-c2n[nH]c3c2C(c2cccnc2)N(c2ccc(Cl)cc2)C3=O)cc1` (stereo not drawn), the remaining compound was 9.1%.
With `Cc1cc(Cl)cc(C(=O)c2c(C(C)C)c(=O)[nH]c(=O)n2Cc2cc(N)nc(Cl)c2)c1` the remaining compound was 19.7%.
The remaining compound of `O=C(c1ccc(OC(c2ccc(Cl)cc2)c2ccccc2Cl)c(F)c1)N1CC(O)C(O)C1` (stereo not drawn) is reported as 66.8%.
For `CCN1CCN(CCCNC(=O)c2oc3ccc4c(c3c2C)C(O)CC(C)(C)O4)CC1` (stereo not drawn), the remaining compound was 96%.
`C1=Cn2nc(/C=C/c3cccs3)nc2-c2ccccc2O1` gave a remaining compound of 2.67%.
`COc1c(-c2ccccc2)oc2ccccc2c1=O` gave a remaining compound of 0.152%.
`COc1cc(OC)cc(N(Cc2c(F)cccc2Cl)C(=O)Cc2ccncc2)c1` has a remaining compound of 1.03%.
With `CCOc1cccc(CNCc2cccnc2)c1OCc1ccc(C)cc1` the remaining compound was 0.442%.
`[O-][S+](Cc1ccn(Cc2ccccc2Cl)n1)c1nc2cc(Cl)ccc2[nH]1` (stereo not drawn) has a remaining compound of 8.24%.
For `Cc1nc2sc(C(=O)N(C)c3ccccc3)c(N)c2c(C)c1C`, the remaining compound was 0.692%.
With `Cc1cc(C)cc(N(C)S(=O)(=O)c2ccsc2-c2nc(-c3cccnc3)no2)c1` the remaining compound was 6.34%.
The remaining compound of `CCOc1cc(/C=N/n2cnnc2)ccc1OCCOCCOc1ccc(C)cc1` is reported as 40.1%.

Some of these lines once more (study 3):
The viability of `CC(=O)[C@H]1CC[C@H]2[C@@H]3CCC4=CC(=O)CC[C@]4(C)[C@H]3CC[C@]12C` is reported as 26.9%.
`CC1=NN(c2ccc(C)c(C)c2)C(=O)/C1=N\Nc1cccc(-c2cccc(C(=O)O)c2)c1O` gave a viability of 47.8%.
The viability of `Cc1ccc(C(=O)c2cc(O)c(O)c([N+](=O)[O-])c2)cc1` is reported as 105%.
For `O=C(O)c1cc(=O)c2ccccc2o1`, the viability was 93.6%.
With `O=C(NC(Cc1cc(=O)[nH]c2ccccc12)C(=O)O)c1ccc(Cl)cc1` (stereo not drawn) the viability was 107%.
`O=c1c(-c2ccc(O[C@@H]3O[C@H](CO)[C@@H](O)[C@H](O)[C@H]3O)cc2)coc2cc(O)cc(O)c12` gave a viability of 99.4%.
`CC(C)(CO)C(O)C(=O)NCCCO` (stereo not drawn) has a viability of 69.1%.
`CC(C)OC(=O)C(C)(C)Oc1ccc(C(=O)c2ccc(Cl)cc2)cc1` gave a viability of 91.6%.
